Measurements from different studies.
Every numbered part comes from another study and shows a few of its results, in no order. Changes are numbered by the printed parent chain.

Sample 1 — target: CCND3, cyclin fold, Cln2 fusion (human); technique: yeast growth competition, sequencing; sample: yeast; setting: weak parent motif; relative to: not given; reading: higher = stronger binding
Parent: LLGL2 docking peptide (human); KSLKKSLRQSFRR
Change	normalised enrichment score
S6A	-0.437
R12A	0.491
L7A	0.253
F11A	-0.107
R8A	0.691
L3A	0.229
S10A	0.0753

Sample 2 — technique: RNA Bind-n-Seq; molecule type: RNA; sample: in vitro; tested at: 365 nM; relative to: no-protein control; reading: higher = stronger binding
Target: RNA binding protein fox-1 homolog 2, RRM domain, GST-SBP tag (RBFOX2, Homo sapiens, UniProt O43251-10, residues 100-194)
Setting: natural RNA segment, single round, ends assumed
Residues (chain): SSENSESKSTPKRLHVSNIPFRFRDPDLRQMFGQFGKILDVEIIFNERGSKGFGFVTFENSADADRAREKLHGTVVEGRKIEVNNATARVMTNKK
Oligonucleotide	RBNS enrichment (R)
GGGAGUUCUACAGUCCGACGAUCUGGUGCUGUACAGAAGGCAUUAAACUAAUGUAAACUACAUCCUAUGUUUGGUUCAUUUGAAAUUUUGGAAUAAUUGUGAAUGUAUGAUAUUGUAAAAUUAAAAAAAUAUAUGGAAUUCUCGGGUGCCAA	0.948
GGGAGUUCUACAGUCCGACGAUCUGUAUAUUUCUAGUGUUUACAGACAGUAAAUGUGUAUAUGUAGUAACUAUUUACAGAACAUGCAUCCUUAAACUGUGACUUCUCACCUAGUGCAGAACUUUUACCAGGCUUGGAAUUCUCGGGUGCCAA	0.633
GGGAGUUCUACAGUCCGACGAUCAUUUUAAUUUGUUGGCUGGAUGUAUAAAGAUGUUUAAAAAAUUCAGUUGCUUUUUGGGGUAAUUUGAAUUACUUUUUUAAUGACUGGGGUUCCAUUUGACUGUUUGCAUUUGGAAUUCUCGGGUGCCAA	2.98
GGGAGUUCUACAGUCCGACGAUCGGGCCAACACACGCCCCUGCCCCUCGUAGGCACCUGCCUGCCCCACACGGACUCCCGGGCCACGCCCCAGCCCGACAAUGUCGAGUAUAUUAUUAUUAAUAUUAUUAUGAUGGAAUUCUCGGGUGCCAA	2.49
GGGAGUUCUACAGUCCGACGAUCCCUUGGCCAGGACUUCACAAGGCUCACACCUACAAUCCCAUGAAGGCCAGGGUGGUCUGCUUAGCCAGGAAAGGGCAAGUGCCUUCCCCUCGGCCACACUGCCCCUUGUGUGGAAUUCUCGGGUGCCAA	0.225
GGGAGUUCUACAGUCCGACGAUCGAGCUGUGUUAAACCUUAACAUGAGACUCAUAUAUUCAGGGUUACAUGAGUUACUUUUAUAAAUCGAUGACCCCCCACCCCCACCCUCACGUCUUACUCUGAGGUGUGUGUGGAAUUCUCGGGUGCCAA	0.397
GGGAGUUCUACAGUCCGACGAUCUAUUCAGUGAUGUCAUCAACCUCACUGUCCCAGCCCAUGUGUGACUAAAGUGCCCGGUUUUAGCCACAGACAACUGCUUAGAUGUCACCUCUUGGCUGACCAAAGCUGGGUGGAAUUCUCGGGUGCCAA	0.259
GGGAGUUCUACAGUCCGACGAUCUAACAUAUUUCUUCAGACUAACAUCUUAAAACACUGACCUCUAUGAGGUAUUUACUGUGCAAUAACUGAUUCAUUUUUUUCAGAGCUUGAAGCAUCCAAUGAUUUUUCCCUGGAAUUCUCGGGUGCCAA	0.662
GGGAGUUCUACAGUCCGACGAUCCACAGACCCUACAAGACGAUGUUAGGAAACACAUGCUUGCUGGCCUUGAAGGACACAGAGAGAAGUAUGUGUGUGUGGUGUGUUUCCAGCUCUGGCUCCCGAAGGGGCAAUGGAAUUCUCGGGUGCCAA	0.852
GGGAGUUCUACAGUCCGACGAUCUAUAAAAUGAAUAAAAUGUUUAAGAAAAGAGAAAGAGAAAAGGAAUUAAUUCAGUGAAGGAUGAUUUUGCUCCUAGUUUUGGAGUUUGAAUUUCUGCCAGGAUUGAAUUAUGGAAUUCUCGGGUGCCAA	1.19
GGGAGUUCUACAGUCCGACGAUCCACUGGCAGAGAGGUAAAGGGUGGGGCAUUGAGAAUGGAGGCUCCCAGGGUCCCUGCCCACUUCUGUUUUCCUAAUGUUUUUCUCUAUAAAGGGUCAGGCCCGUCAGCAUUGGAAUUCUCGGGUGCCAA	1.35
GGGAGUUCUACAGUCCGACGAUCAUUUGCUCAUAAAGCAUUUGGAUACUAAGCCAUUAUUUGCCAUUUUGGGUACUUUAUACAAAGAAAAUUCAGCCCUACCCUGCAUAAUUUGAAGACACAGCAGAAAGGGGUGGAAUUCUCGGGUGCCAA	0.822

Sample 3 — technique: protein-binding microarray; molecule type: double-stranded DNA, one strand shown; sample: in vitro; tested at: 0.8 µM; setting: whole 60-bp probe, no competitor; reading: higher = stronger binding
Target: Centromere-binding protein 1, full length, N-terminal tag (CBF1, Saccharomyces cerevisiae, UniProt P17106, residues 1-351)
Sequence of UniProt P17106 (whole entry, looked up): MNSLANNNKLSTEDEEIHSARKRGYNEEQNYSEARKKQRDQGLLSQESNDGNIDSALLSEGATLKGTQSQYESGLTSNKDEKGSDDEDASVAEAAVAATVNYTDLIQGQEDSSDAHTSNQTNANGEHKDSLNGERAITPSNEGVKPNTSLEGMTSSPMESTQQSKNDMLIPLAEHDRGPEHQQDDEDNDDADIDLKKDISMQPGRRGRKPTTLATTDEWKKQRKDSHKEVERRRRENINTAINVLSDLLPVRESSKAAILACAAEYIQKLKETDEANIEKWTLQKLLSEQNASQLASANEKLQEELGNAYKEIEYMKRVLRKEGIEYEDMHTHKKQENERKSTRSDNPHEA
Oligonucleotide	fluorescence intensity
GAAAAAATGCGGCTGCACGTTGCTTATTACGTGTAGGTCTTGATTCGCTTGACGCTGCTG	602 a.u.
CTACATTTTGCATAACACACGTTAACCAATATATTCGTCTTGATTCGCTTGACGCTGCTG	550 a.u.
CTAATTAATGTGCGCCACGTTTGACGTTTAAGTTTCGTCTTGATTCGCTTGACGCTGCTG	530 a.u.
GAATGTCACTCATGTTTCGTGATAAAAGAAATATAGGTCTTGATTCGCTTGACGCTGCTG	623 a.u.
CTAATAGTAGATCAACTCGTGCTCTGCTGGCTATTCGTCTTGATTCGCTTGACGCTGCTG	568 a.u.
CCTAACTACTATAATGGCGTGTGATAGCTTCGTACAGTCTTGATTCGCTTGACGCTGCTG	581 a.u.
CTAGGTCAAAAAAATCAGGTGGATACATAACTTTTCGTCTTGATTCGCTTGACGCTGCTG	753 a.u.
CTAGAGCAGATAAGTCATGAGGCTAAGAAAGATTTCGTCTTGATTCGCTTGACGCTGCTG	631 a.u.
CTACTTTATGGTCAGCACGTATCGCTTCATATATTCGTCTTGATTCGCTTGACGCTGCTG	592 a.u.
TGTACGAAGCTATGTGGTGTCATTATAGTAGTTAGGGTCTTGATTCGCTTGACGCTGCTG	551 a.u.
CCTAACTACTATAGCCAGGTGATATAGCTTCGTACAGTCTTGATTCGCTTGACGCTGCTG	650 a.u.
CTAGCTAGTATACACCACGCATATGTCTGTCAATTCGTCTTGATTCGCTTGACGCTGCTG	512 a.u.
GAAGGTACTCATTATACCGTGATTACCAATTTCTAGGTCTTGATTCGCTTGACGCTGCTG	677 a.u.
GAATCATTTCTATCCCACTCGTGAGTAATGGCTTAGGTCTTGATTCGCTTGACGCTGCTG	523 a.u.
CTATTTTTTGCTACGAACGTGGCCCTTTTTATGTTCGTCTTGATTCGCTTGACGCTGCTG	549 a.u.
GAATAGAAGGGAAATCATATGAAAGAAAAGAAGTAGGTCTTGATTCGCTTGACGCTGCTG	505 a.u.
CTACTATTCTAAAATCACGTATATTGTGTATGTTTCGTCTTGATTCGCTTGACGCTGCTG	595 a.u.
CTAAATATACATATTCACGGGATACTAGGAGGTTTCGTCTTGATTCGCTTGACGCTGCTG	598 a.u.
TGTACGAAGCTATACAGCATGATTATAGTAGTTAGGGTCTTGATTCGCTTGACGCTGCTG	525 a.u.
GAACGGCAAAACGTCAACACCACCTCTACATTTTAGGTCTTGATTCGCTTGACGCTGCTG	504 a.u.

Sample 4 — target: OGT, full length, His-tagged (human); technique: phage display, sequencing; sample: in vitro; tested at: 1 µg OGT; relative to: input library; reading: higher = stronger binding; parent: peptide; NSEYMPQYQIIFAHQ
Setting: single substitutions, 15-mer displayed peptide, unchanged parent 16.7
Change	fold enrichment [fold]
NSEYMPQYQIILAHQ [F12L]	4.95
NSEYMPQYQIIFAHR [Q15R]	16.4
KSEYMPQYQIIFAHQ [N1K]	12.9
NSEYMPQYQIIFANQ [H14N]	13.5
NPEYMPQYQIIFAHQ [S2P]	21.1
NSEYMPQQQIIFAHQ [Y8Q]	0.565
NSEYMPQYQIIEAHQ [F12E]	0.71
NMEYMPQYQIIFAHQ [S2M]	12.3
NSEYMPQYQIISAHQ [F12S]	1.5
NSEYMLQYQIIFAHQ [P6L]	4.61
NSEDMPQYQIIFAHQ [Y4D]	0.767
NSEYMPQYQIIFAMQ [H14M]	8.55
NSEYMMQYQIIFAHQ [P6M]	3
NSEYMPQYQGIFAHQ [I10G]	0.0162
NSEYMPPYQIIFAHQ [Q7P]	0.742
NSEYMPEYQIIFAHQ [Q7E]	4.91
NSEYMPQYQIIFALQ [H14L]	9.48
NHEYMPQYQIIFAHQ [S2H]	17.5

Sample 5 — technique: protein-binding microarray; molecule type: double-stranded DNA, one strand shown; sample: in vitro; tested at: not given; reading: higher = stronger binding
Target: Protein max, full length (MAX, Homo sapiens, UniProt P61244-2, residues 1-151)
Setting: k-mer, scored over probes, only values ≥0.25
Oligonucleotide	E-score
AGTCACAT	0.436
CATGCCCG	0.364
CAGCGTGG	0.457
ACATGGAA	0.358
GACATGCC	0.335
GCATGACC	0.393
CACGCGGC	0.473
GCGCATGA	0.384
ACTGCATG	0.335
ACATGTTG	0.389
GCACGTTA	0.388
ACGGTGTG	0.263
CATGTCCG	0.296
GACGCCAC	0.282
CCCATGCG	0.446
AAGCATGA	0.397
CGTGCTCA	0.439
CATGCAAA	0.26
CGCGCGGC	0.301
AATGTGTG	0.277
GCTGGCAC	0.252
CAGGTGGA	0.391
CATGCTGC	0.451
ACGTGGCA	0.45
CATGTCAC	0.335

Further values, each from its own experiment
Substance	target	assay	system	setting	how to read	measurement	value
PhoQ, residues 284 288 289 292 302 303 SNSSNI	PhoP, residues 12 14 15 18 19 NHFIF (Escherichia coli, UniProt P23836)	Sort-seq, measured: YFP reporter	E. coli	PhoQ-PhoP variant library, together with: 10 µM Mg2+	relative to: high Mg2+ state, higher = stronger signaling	fold induction	9.27

Repeated from above (sample 5):
Oligonucleotide	E-score
GCGCATGA	0.384
ACTGCATG	0.335
ACATGTTG	0.389
GCACGTTA	0.388
ACGGTGTG	0.263
CATGTCCG	0.296
GACGCCAC	0.282
CCCATGCG	0.446
